Results gathered from unrelated publications.
A part holds a random share of what one study measured. Substitutions count along the parent as printed.

Series 1 — technique: protein-binding microarray; form: double-stranded DNA, one strand shown; matrix: in vitro; tested at: 2540 nM top; notes: 60-bp whole probe; added: salmon DNA 0.4 mg/ml; baseline: random background probes; direction: higher = stronger binding; all sequences stand within: GCCTAGCAC … GTCTTGATTCGCTTGACGCTGCTG
Target: Interferon regulatory factor 3, full length, phosphomimetic (IRF3, Homo sapiens, UniProt Q14653, residues 1-427, S386D/S396D/S398D/S402D/T404D/S405D)
UniProt Q14653, sequence (whole entry, unmodified, looked up): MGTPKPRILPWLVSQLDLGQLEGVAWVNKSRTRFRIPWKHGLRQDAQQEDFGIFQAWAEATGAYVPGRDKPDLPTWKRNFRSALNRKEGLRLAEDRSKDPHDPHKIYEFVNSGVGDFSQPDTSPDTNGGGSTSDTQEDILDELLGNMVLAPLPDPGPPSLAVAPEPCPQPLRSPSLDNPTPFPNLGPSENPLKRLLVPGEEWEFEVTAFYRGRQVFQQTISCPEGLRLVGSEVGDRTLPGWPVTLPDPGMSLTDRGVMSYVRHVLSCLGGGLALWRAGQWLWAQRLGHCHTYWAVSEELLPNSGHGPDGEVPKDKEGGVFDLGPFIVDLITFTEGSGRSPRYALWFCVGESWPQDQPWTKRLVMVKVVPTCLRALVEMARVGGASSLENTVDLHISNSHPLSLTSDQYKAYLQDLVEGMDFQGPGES
| Sequence | fitted relative affinity |
| --- | --- |
| ATTTTTTTTTTCATCATTGCGTGCTAG | 1.35 z-score |
| GACGGTGTCGGGTATCGGGACGTGCTA | 1.22 z-score |
| GACGGTTTCCGGACTGGGGACGTGCTA | 4.1 z-score |
| TTTTGCTTTCCTTTATGTACGTGCTAG | 7.9 z-score |
| TTAGGTATCGGTTTCGGTTAGTGCTAG | 8.84 z-score |
| TCATCTCCCATTATATTACTGTGCTAG | 1.6 z-score |
| TACGGTTTCGACTTTCGGGACGTGCTA | 3.9 z-score |
| TTAGGTTCCCTTTTCCTTAAGTGCTAG | 7.72 z-score |
| TCATCCCTCGGGTTGCGGACTGTGCTA | 0.0985 z-score |
| CTGAGTCCCTATCTCCTCACGTGCTAG | 0.911 z-score |
| GACGTACTGGGACTGGGGACGTGCTAG | -0.591 z-score |
| TAAGGTATCCTTTTCCTTTAGTGCTAG | 8.44 z-score |
| CAGCCTCTACCTCCTGGGCTCGTGCTA | -0.203 z-score |
| CAACCTTTGTTTTTTTCTATGTGCTAG | 1.04 z-score |
| TTAGGTATCGGTTTCGGTTTGTGCTAG | 9.42 z-score |
| GACGGTATCGACACTTGGGACGTGCTA | 0.471 z-score |
| TTAGATCTCAGTTTCGATTTGTGCTAG | 5.6 z-score |
| TTAGGCTTCGGGTTTCGGTTAGTGCTA | 2.14 z-score |
| GACGGACTGCTTATCCTGACGTGCTAG | -0.362 z-score |
| TTAGATTCCAGACTGGATTAGTGCTAG | 2.52 z-score |
| GACGGACTGCTTTTGCTGACGTGCTAG | -0.378 z-score |
| ACAAGTTTCTCCTTTGTAAAGTGCTAG | 1.94 z-score |
| TCATTTTAAAGTTTCAGACTGTGCTAG | 2.48 z-score |
| TCACCCCTCTAGGTTCTCACTGTGCTA | 0.25 z-score |
| GACGATCTCAGTCCCGAGACGTGCTAG | 0.287 z-score |

Series 2 — technique: protein binding microarray; form: double-stranded DNA, one strand shown; matrix: in vitro; tested at: not given; baseline: not given; direction: higher = stronger binding
Target: Histone acetyltransferase KAT6A, both winged helices, GST fusion (KAT6A, Homo sapiens, UniProt Q92794, residues 1-181)
Notes: 8-mer, flanks averaged, mean of 2 arrays, mostly near background
Residues (chain): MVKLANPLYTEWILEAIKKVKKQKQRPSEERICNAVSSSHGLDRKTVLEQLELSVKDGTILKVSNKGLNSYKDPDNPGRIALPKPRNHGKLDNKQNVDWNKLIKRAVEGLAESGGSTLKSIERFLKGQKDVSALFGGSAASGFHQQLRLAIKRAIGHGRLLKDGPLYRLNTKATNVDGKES
| Sequence | E-score |
| --- | --- |
| ATCGAACC | 0.0347 |
| CTGACCAC | -0.176 |
| CAGTATAA | -0.13 |
| CTCGGGAC | 0.0368 |
| AAGCGCTT | 0.304 |
| ACCACAAA | -0.0197 |
| GTAGCCTA | -0.115 |
| AATACATG | 0.00904 |
| CTTTAAGA | 0.0172 |
| CGGGCTAG | 0.114 |
| CTACGCCA | 0.0275 |
| CATATGAA | -0.112 |
| CAGGCGTA | -0.00346 |
| TATCAAGA | -0.211 |
| GAATTGTA | -0.019 |
| GTCCAGCA | -0.192 |
| AGCGTCAT | 0.0631 |
| GCGTTTGA | 0.0954 |

Series 3 — technique: RNA Bind-n-Seq; form: RNA; matrix: in vitro; tested at: 365 nM; baseline: no-protein control; direction: higher = stronger binding
Target: RNA binding protein fox-1 homolog 2, RRM domain, GST-SBP tag (RBFOX2, Homo sapiens, UniProt O43251-10, residues 100-194)
Notes: natural RNA segment, single round, ends assumed
All sequences stand within: GGGAGUUCUACAGUCCGACGAUC … UGGAAUUCUCGGGUGCCAA
Construct (chain): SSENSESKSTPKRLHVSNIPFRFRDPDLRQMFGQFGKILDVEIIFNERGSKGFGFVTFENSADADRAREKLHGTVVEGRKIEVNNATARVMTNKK
| Sequence | RBNS enrichment (R) |
| --- | --- |
| UGUCCUUCUGAUAAAUAAAGCCCUUGCUGAAGGAAAAGCAACCUAGAUCACCUUAUGGAUGUCGCAAUAAUACAAACCAGUGUACCUCUGACCUUCUCAUCAAGAGAGCU | 0.367 |
| CCCCUGCCUUCUCAGCCACAUGCUUUUGGCCUUAAACGCUCAGUCUUGUGGAGUUCAACUCUGUCAAACGAUUGGAAAGGGCAUCCAUUUCCAGAUCUUUGGCAUUUUCC | 0.955 |
| UUCUUUUUCUGCAAUGAAGACAGAAAGAAGGCUCUGGGGUGAUGCGUUUGGCAUUUGUGUUGAGCUUAGGGGAGCAUUGGCAUGGAGAAACUCCACGCUGGCGAAGUCCC | 0.641 |
| UCCCCAACCUCUGCCAGGGCAAUCUCUAACUUCAAUCCCGCCUUCGACAGUGAAAAAGCUCUACUUCUACGCUGACCCAGGGAGGAAACACUAGGACCCUGUUGUAUCCU | 0.3 |
| GGAGCAGCCAGCCAUUUGGGAGAAGAUCUCAAGGAUCCAGACUCUCAUUCCUUUCCUCUGGCCCAGUGAAUUUGGUCUCUCCCAGCUCUGGGGGACUCCUUCCUUGAACC | 0.272 |
| GUUACACUGAUCUAAAGGACAUAUAUAUAACCCUUUAAAAAAAAAAUCACUGCCUCAUUCUUAUUUCAAGAUGAAUUUCUAUACAGACUAGAUGUUUUUCUGAAGAUCAA | 0.467 |
| CUCAAUGUCAACUUUUUUCACUGAAUAAAAAUUUAACUGGGUCAAGAAAACACCUCUUUGAAAAUCCACUGUCUCUGUGUGUCUCGAGCUGUUCUUUAGAGCGCAAUAAA | 0.643 |
| UCUUAAAAACGUUUUGGAAAGCACUUCAGAUUUUACUGUUUACCAUGAGCCAUGGGUUUUUGUUUUUUCUAAAUUGUCGGGUUGUGUGGGUUUUGGUUACUCGUUUUUGU | 0.993 |
| UCCAAAGGACCAACCUGCCUUACACAUCUCAAGGAAUUCAGCUGUUGAAAUCAUUUGAACUAAUCAAGGAAUAAAUCCUAAUGUUCUGGGACUUUAUUUUCACAUGUUAA | 0.407 |
| ACUCUGAACCAGUGAACAUUUUGGAUGUUUCCGUGUUCUCCUGUGUCAUCUCUACUGGGCCAUAGGACCGGGCAAACCUACCUUAAAAUAGGCAGAGGAAAGUUUCAUGA | 0.275 |
| UGAUACGCAGUUGUGCAUGGGAAGGGGAAACGCACAGCUUUAUUUACUGUAAAGUGGAAUUUCAGGAAGGCUUGUGUGAACCGUUGCGCAUAAAUAAACCCUUUCUACCG | 1.62 |
| UUUCACAUCACCAAAUUCCUCAUUUAUACUUGGGGAAAAAACAAGGCCAUAUGUAAAAACCCUUCCAAUGCCUAAGUGUCUUUCUCCUGCAACUCCAAACCCAGACUCGC | 0.476 |

Series 4 — technique: aptamer microarray, sandwich; form: DNA with 2'F-ANA; matrix: in vitro; tested at: 200 nM; added: Cy3 exosite-II aptamer, 400 nM; direction: higher = stronger binding; sequence: GGTTGGTGTGGTTGG
Target: Prothrombin, mature alpha-thrombin (F2, Homo sapiens, UniProt P00734)
Notes: whole 15-mer aptamer, many near background
| Modification | mean fluorescence intensity |
| --- | --- |
| 2'F-ANA at 1 3 4 6 9 12 15 | 325 a.u. |
| 2'F-ANA at 1 2 3 5 7 8 9 10 11 15 | 47.9 a.u. |
| 2'F-ANA at 1 2 3 4 6 7 9 10 12 14 15 | 50.5 a.u. |
| 2'F-ANA at 1 2 4 6 11 14 | 53.5 a.u. |
| 2'F-ANA at 2 3 5 6 7 8 10 11 | 49.6 a.u. |
| 2'F-ANA at 2 3 6 8 10 11 12 14 15 | 214 a.u. |
| 2'F-ANA at 2 6 10 15 | 111 a.u. |
| 2'F-ANA at 1 3 4 6 10 11 12 13 14 15 | 54.4 a.u. |
| 2'F-ANA at 4 6 7 9 10 12 15 | 103 a.u. |
| 2'F-ANA at 4 7 8 13 | 332 a.u. |
| 2'F-ANA at 1 2 4 5 6 9 10 11 12 14 15 | 51.8 a.u. |
| 2'F-ANA at 1 2 4 5 6 9 11 | 64.6 a.u. |
| 2'F-ANA at 2 3 9 13 15 | 583 a.u. |
| 2'F-ANA at 1 3 5 6 7 8 10 11 | 50.2 a.u. |
| 2'F-ANA at 1 3 5 12 13 14 15 | 59.1 a.u. |
| 2'F-ANA at 1 2 14 15 | 53.3 a.u. |

Series 5 — technique: DHFR PCA, deep sequencing; matrix: yeast; added: (+)-ABA 200 µM; baseline: wild-type fitted maximum; direction: higher = stronger binding
Target: ABI1, truncated, D143A, DHFR fusion (Arabidopsis thaliana)
Notes: methotrexate growth selection, single substitutions
Parent: PYL1, truncated, DHFR fusion (Arabidopsis thaliana); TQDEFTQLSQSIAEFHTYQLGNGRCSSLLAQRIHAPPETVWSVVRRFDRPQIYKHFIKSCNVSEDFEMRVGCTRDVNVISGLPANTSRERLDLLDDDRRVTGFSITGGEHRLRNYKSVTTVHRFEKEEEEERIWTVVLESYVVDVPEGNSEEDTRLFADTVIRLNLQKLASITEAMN
| Substitution | relative binding score |
| --- | --- |
| N114S | 73.1% |
| G102F | -5.55% |
| A13E | 103% |
| R45P | -12.4% |
| R24C | 96.7% |
| G108S | 43% |
| R111V | 19.7% |
| I162Y | 4.1% |
| T86P | 4.89% |
| K168E | 78.5% |
| V142K | 76.8% |
| S42P | 88.2% |
| L91Q | 17.3% |
| F66K | 87.4% |
| D159E | 93.9% |
| D96C | 69% |
| V137W | -2.92% |
| V161A | 21.6% |
| R163S | 84.7% |
| P146Y | 20.2% |
| T101C | 104% |

Series 6 — target: CCND1, cyclin fold, Cln2 fusion (human); technique: yeast growth competition, sequencing; matrix: yeast; notes: strong parent motif; baseline: not given; direction: higher = stronger binding
Parent: RBL2 docking peptide (human); STTRRRLFVENDS
| Substitution | normalised enrichment score |
| --- | --- |
| R5K | 0.437 |
| F8W | 0.0686 |
| N11E | 1.19 |
| D12L | -0.165 |
| S13K | 0.511 |
| D12Q | 0.551 |
| T3V | 1.46 |
| N11K | 0.529 |
| S1K | 0.451 |
| T3C | 1.67 |
| T2F | 1.51 |
| R4Q | 0.594 |
| V9K | 0.529 |
| V9C | 1.47 |
| E10N | 0.511 |
| R6M | 0.742 |
| F8V | 0.107 |
| L7N | -0.381 |
| N11I | -0.0245 |
| F8Y | 0.173 |
| T3S | -0.0517 |

Further values, each from its own experiment
| Substance | target | assay | system | conditions | scale | measurement | result |
| --- | --- | --- | --- | --- | --- | --- | --- |
| PhoQ, residues 284 288 289 292 302 303 QWGLFV | PhoP, residues 12 14 15 18 19 NMSSL (Escherichia coli, UniProt P23836) | Sort-seq, item: YFP reporter | E. coli | PhoQ-PhoP variant library, added: 10 µM Mg2+ | baseline: high Mg2+ state, higher = stronger signaling | fold induction | 20.5 |

Some of these lines once more (series 6):
| Substitution | normalised enrichment score |
| --- | --- |
| S1K | 0.451 |
| T3C | 1.67 |
| T2F | 1.51 |
| R4Q | 0.594 |
| V9K | 0.529 |
| V9C | 1.47 |
| E10N | 0.511 |
| R6M | 0.742 |
| F8V | 0.107 |
